# Measurements from different studies.
# Each line is one published result; not all experiments were run side by side. Several values in a cell are separate wells, animals, samples, runs or records.
# B1: Csm2 1-140 (Enterococcus italicus, UniProt E6LHV6); chain MELAKTKTGEMIDLNFARKVVEENKRVKDNRGRQEIVLFNGLTTSKLRNLLELINHVYTKVYNSDDTTLSEDVRDELEYLKVKFAYESGREPAVRTFIEKTYVDKLVDVVLKKNTKKIFLDYCKYFEALVAYAKFYRMGD
# B2: protein 1-735 A444P (UniProt C7Z7K1); chain MSNLKDFSQPGSGQESNFGVDFVIHYKVPAAERDEAEAGFVQLIRALTTVGLATEVRHGENESLLVFVKVASPDLFAKQVYRARLGDWLHGVRVSAPHNDIAQALQDEPVVEAERLRLIYLMITKPHNEGGAGVTPTNAKWKHVESIFPLHSHSFNKEWIKKWSSKYTLEQTDIDNIRDKFGESVAFYFAFLRSYFRFLVIPSAFGFGAWLLLGQFSYLYALLCGLWSVVFFEYWKKQEVDLAVQWGVRGVSSIQQSRPEFEWEHEAEDPITGEPVKVYPPMKRVKTQLLQIPFALACVVALGALIVTCNSLEVFINEVYSGPGKQYLGFLPTIFLVIGTPTISGVLMGAAEKLNAMENYATVDAHDAALIQKQFVLNFMTSYMALFFTAFVYIPFGHILHPFLNFWRATAQTLTFSEKELPTREFQINPARISNQMFYFTVTPQIVNFATEVVVPYIKQQAFQKAKQLKSGSKVQEDHEEEAEFLQRVREECTLEEYDVSGDYREMVMQFGYVAMFSVAWPLAACCFLVNNWVELRSDALKIAISSRRPIPWRTDSIGPWLTALSFLSWLGSITSSAIVYLCSNSKNGTQGEASPLKAWGLLLSILFAEHFYLVVQLAVRFVLSKLDSPGLQKERKERFQTKKRLLQENLGQDAAEEAAAPGIEHSEKITREALEEEARQASIRGHGTPEEMFWQRQRGMQETIEIGRRMIEQQLAAGKNGKKSAPAVPSEKAS
# B3: gpU (bacteriophage lambda, UniProt P03732); sequence looked up; chain MKHTELRAAVLDALEKHDTGATFFDGRPAVFDEADFPAVAVYLTGAEYTGEELDSDTWQAELHIEVFLPAQVPDSELDAWMESRIYPVMSDIPALSDLITSMVASGYDYRRDDDAGLWSSADLTYVITYEM
# B4: ilvA regulatory domain 336-422 (Staphylococcus aureus, UniProt Q2FF63); sequence looked up; chain EMKHYFILNFPQRPGALREFVNDVLGPQDDITKFEYLKKSSQNTGTVIIGIQLKDHDDLIQLKQRVNHFDPSNIYINENKMLYSLLI
# B5: YukB 1-973 (Bacillus subtilis, UniProt C0SPA7); sequence looked up; chain MSLLWVFYQNNVQKLNLSNLPSSHPVTIGPDVKDSVTISTIPFNSGVISLKRKESGGQYEVFLGNDCLGTIETDISFTLQTDQQDIRLILTGSEPEKSVYFTGNRDEIVCSSEKTNADIYLNPQDFAFAEQSTFSLLRAGGSWSVRPESGTIFLNGEKINANTPLKPGDEIFWNFTQMRVTEQDLLEIVHYAQFETALTETVKPSTEMQKKYPQYRRTPRMVYDLPDDRVSFSFPSQESDQTNRGLWLVILPPLVMLIVMGVVAIIQPRGIFILVSLAMFMMTLITSTVQYFRDKNQRKKREEKRERVYKLYLDNKRKELQALAEKQKQVLEFHFPSFEQMKYLTSEISDRIWEKSLESKDYLQLRLGTGTVPSSYEINMSGGDLANRDIDDLMEKSQHMQRVYKDIRNAPVTVDLAEGPMGLVGKSQIVKNEIHQLIGQLSFFNSYHDLRFVFIFHEEEYKDWEWMKWLPQFQMPHIYAKGFIYNEQTRDQLLSSLYELIRERDLEDDKEKLQFKPHFVFVITNQQLISEHVILEYLEGQHEHLGISTIVAAETKESLSENITTLVRYINEHEGDILIQKKKAVRIPFRLDHHQREDNERFSRTLRTLNHQVGITNSIPETVSFLELFHAKEVKEIGIQQRWLTSESSKSLSVPIGYKGKDDIVYLNLHEKAHGPHGLLAGTTGSGKSEFLQTYILSLAVHFHPHEAAFLLIDYKGGGMAQPFRNIPHLLGTITNIEGSKNFSMRALASIKSELKKRQRLFDQYQVNHINDYTKLYKQGKAEVAMPHLFLISDEFAELKSEEPDFIRELVSAARIGRSLGVHLILATQKPGGIIDDQIWSNSRFKVALKVQDATDSKEILKNSDAANITVTGRGYLQVGNNEVYELFQSAWSGAPYLEEVYGTEDEIAIVTDTGLIPLSEVDTEDNAKKDVQTEIEAVVDEIERIQDEMGIEKLPSPWLPPLAERIPRTLFP
# B6: pyrE (Burkholderia cenocepacia, UniProt B4E589); sequence looked up; chain MTGYDRQSISDTTAKILLEVQAVHFNAEKPFIFTSGWASPVYIDCRKLISYPRVRRALMEMAETTITRDIGFEQIDAVAGGETAGIPFAAWIADRMMVPMQYVRKKPKGFGRNAQIEGHLEEGSRVLLVEDLTTDSRSKINFVNALRTAGATVNHCFVLFHYNIFKESVSVLKDIDVDLHALATWWDVLRVAKASGYFETKTLDEVEKFLHAPAEWSAAHGGATAPKE
# B7: bvgA full length, unphosphorylated (Bordetella pertussis, UniProt P0A4H2); sequence looked up; chain MYNKVLIIDDHPVLRFAVRVLMEKEGFEVIGETDNGIDGLKIAREKIPNLVVLDIGIPKLDGLEVIARLQSLGLPLRVLVLTGQPPSLFARRCLNSGAAGFVCKHENLHEVINAAKAVMAGYTYFPSTTLSEMRMGDNAKSDSTLISVLSNRELTVLQLLAQGMSNKDIADSMFLSNKTVSTYKTRLLQKLNATSLVELIDLAKRNNLA
# B8: sduA (Bacillus cereus, UniProt B7HFR2); chain MSDKINVWTTSRDSAVCGDIELKKTSTTRLIFRPEIVNNNKNPKASVRGCFIFQKKGRNALWDDYKELDMNKLKAEEWIKLEINSDAMLTLTKEIQKHYAVHEKYGVRYGAFHLFKDNPDIEKLIEMFESNTDLLTQLMEDDKSEALEKTLEWIVTNDNPDKIIDRLKNLKEQDLDQLNTLIGIANLKKVLSVWESNKLTNTSEKFWQSVLKENTWILSQIFSNPTVLINDEAYVGGKTVKNDSGKLVDFLYANPFSKDAVLIEIKTPSTPLITPTEYRTGVYSAHKDLTGAVTQVLTYKTTLQREYQNIDYNNYRQGIKTDFDIITPCCVVIAGMFDTLTDTAHRHSFELYRKELKNVTVITFDELFERVKGLIKLLEG
# B9: panD S135A (Mycobacterium abscessus, UniProt B1MGV7); chain MMFRTMMKSKIHRATVTHADLHYVGSVTIDPDLMEAADLLEGEQVTIVDIDNGARLETYAITGTRGSGVIGINGAAAHLVHPGDLVIIIAYGVMTDEEARAFTPRVVFVDSDNKQVELGEHSDDPAYVPENFGLVAPRGLV
# B10: mpr (Mycobacterium smegmatis, UniProt Q50442); chain MTTPQPYPGMPSQPAPQGVPYPPQQPAKKKRKWPAIVGGVIALMIVGSIFNDDKKDTTPAENTATVAQAPAAAPTKEVPETTATINTPVRDGKFEFVVRSVEPGLSEVGDNPFLNQKAQGQFVIVTLSVQNIGDRPQGFSPSNQKLFDTEGRSFETDTSAQIALDNNDIAVWDNINPGNTVDVSLVYDMPVDAVPASIELHDSMFSGGVTVNLTP
# B11: panD D95A (Mycobacterium abscessus, UniProt B1MGV7); chain MMFRTMMKSKIHRATVTHADLHYVGSVTIDPDLMEAADLLEGEQVTIVDIDNGARLETYAITGTRGSGVIGINGAAAHLVHPGDLVIIIAYGVMTAEEARAFTPRVVFVDSDNKQVELGEHSDDPAYVPENFGLVSPRGLV
# B12: lacI 1-360 N125C/D149C (Escherichia coli, UniProt P03023); chain MKPVTLYDVAEYAGVSYQTVSRVVNQASHVSAKTREKVEAAMAELNYIPNRVAQQLAGKQSLLIGVATSSLALHAPSQIVAAIKSRADQLGASVVVSMVERSGVEACKAAVHNLLAQRVSGLIICYPLDDQDAIAVEAACTNVPALFLCVSDQTPINSIIFSHEDGTRLGVEHLVALGHQQIALLAGPLSSVSARLRLAGWHKYLTRNQIQPIAEREGDWSAMSGFQQTMQMLNEGIVPTAMLVANDQMALGAMRAITESGLRVGADISVVGYDDTEDSSCYIPPLTTIKQDFRLLGQTSVDRLLQLSQGQAVKGNQLLPVSLVKRKTTLAPNTQTASPRALADSLMQLARQVSRLESGQ
# Sequence of UniProt Q12527 (whole entry, looked up): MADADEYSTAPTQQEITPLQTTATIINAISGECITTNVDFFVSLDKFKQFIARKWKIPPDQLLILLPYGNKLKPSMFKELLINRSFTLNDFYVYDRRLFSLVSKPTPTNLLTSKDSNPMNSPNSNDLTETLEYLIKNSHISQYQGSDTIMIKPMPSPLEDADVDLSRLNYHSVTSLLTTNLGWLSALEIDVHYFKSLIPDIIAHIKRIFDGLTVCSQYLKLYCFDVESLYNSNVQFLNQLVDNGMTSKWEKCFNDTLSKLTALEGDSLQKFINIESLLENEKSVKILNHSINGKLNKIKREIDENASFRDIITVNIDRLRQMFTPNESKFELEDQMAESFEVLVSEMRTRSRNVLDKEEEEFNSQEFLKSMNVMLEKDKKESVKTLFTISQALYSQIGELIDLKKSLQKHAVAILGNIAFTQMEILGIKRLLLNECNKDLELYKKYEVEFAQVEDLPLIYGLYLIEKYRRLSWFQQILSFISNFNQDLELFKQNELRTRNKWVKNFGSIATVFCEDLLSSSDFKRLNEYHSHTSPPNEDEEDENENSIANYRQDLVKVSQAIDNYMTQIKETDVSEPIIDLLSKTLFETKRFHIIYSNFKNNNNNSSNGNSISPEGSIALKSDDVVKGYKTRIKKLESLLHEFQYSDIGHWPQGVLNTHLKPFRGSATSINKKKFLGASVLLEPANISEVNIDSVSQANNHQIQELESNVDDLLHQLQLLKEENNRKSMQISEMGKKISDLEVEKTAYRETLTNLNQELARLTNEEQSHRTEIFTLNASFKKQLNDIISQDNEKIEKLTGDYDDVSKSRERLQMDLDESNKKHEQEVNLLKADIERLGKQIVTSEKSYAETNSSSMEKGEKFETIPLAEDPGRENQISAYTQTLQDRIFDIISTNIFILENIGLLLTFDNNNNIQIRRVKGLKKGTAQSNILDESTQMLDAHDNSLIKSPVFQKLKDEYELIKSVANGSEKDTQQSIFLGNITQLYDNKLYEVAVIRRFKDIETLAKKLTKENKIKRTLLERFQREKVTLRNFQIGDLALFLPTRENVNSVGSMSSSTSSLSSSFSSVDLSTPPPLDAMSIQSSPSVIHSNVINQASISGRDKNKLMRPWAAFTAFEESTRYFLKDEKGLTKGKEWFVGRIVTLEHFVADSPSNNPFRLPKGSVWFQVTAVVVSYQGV
Substance,tested on,test,system,setting,scale,quantity,result
B1 (Csm2 1-140),itself,cryo-EM,,,,subunits per oligomer,3 and 2
B2 (protein 1-735 A444P),itself,cryo-EM,,,,subunits per oligomer,2
"ATG11 (Saccharomyces cerevisiae, UniProt Q12527)",itself,SEC,,,,subunits per oligomer,2
B3 (gpU),itself,cryo-EM,,,,subunits per oligomer,6
B4 (ilvA regulatory domain 336-422),itself,SEC,,,,subunits per oligomer,4
B5 (YukB 1-973),itself,cryo-EM,,,,subunits per oligomer,< 3
B6 (pyrE),itself,SEC,,,,subunits per oligomer,4
insulin human,,item: KCNH7 mRNA,"uninfected mouse, brain","i.p., dose not given",baseline: PBS,fold change,1.12
B7,itself,cross-linking,,,,subunits per oligomer,2
B8 (sduA),itself,SEC-MALS,,,,subunits per oligomer,4
B9 (panD S135A),itself,native gel,,,,subunits per oligomer,4
B10 (mpr),itself,cross-linking,,,,subunits per oligomer,2
B11 (panD D95A),itself,native gel,,,,subunits per oligomer,4
B12 (lacI 1-360 N125C/D149C),itself,SEC,,,,subunits per oligomer,4

# Repeated from above:
Substance,tested on,test,system,setting,scale,quantity,result
B1 (Csm2 1-140),itself,cryo-EM,,,,subunits per oligomer,3 and 2
